Assay results gathered from unrelated publications.
Each line is one published result; not all experiments were run side by side. Numbers after ± are the reported error.

| SMILES | target | test | system | conditions | how to read | endpoint | value |
| --- | --- | --- | --- | --- | --- | --- | --- |
| CC1CCC(C(C)C)C(OC(=O)Cn2c(-c3ccc(OC(=O)CCCCC4SCC5NC(=O)NC54)cc3)[n+](C)c3ccccc32)C1 (stereo not shown) | mouse OxPhos proteins | biotin pull-down | HTS cells |  |  | time to protein binding | ≤ 10 min |
| COc1cc(C(C)C)c(Oc2cnc(N)nc2N)cc1I | chicken P2X3 A196G | ion current, inhibitor, patch clamp | HEK293 transfected | 10 µM, added: ATP 10 µM |  | ATP-evoked current | inhibited |
| CNC(=O)C1CCN(c2cc(C)c(F)cc2NC(=O)c2ccc(-c3cc(O)ccc3C)c(C)c2)CC1 | human EPHA2/EPHA4 | phosphorylation, inhibitor, Western blot | 12Z | 15 min pretreatment, added: EFNA5 0.5 µg/mL | lowest concentration | significant inhibitory concentration | 1 µM |
| COc1ccc(N2C(=O)C=CC2=O)cc1 | DPP3 (Candida albicans) | GFP fluorescence | Candida albicans, BWP17 DPP3-GFP | 1 µg/mL, 4 h | reference: untreated | DPP3 expression | 2.49 fold |
| Cc1sc2ncn(CC(=O)N3CCCC3)c(=O)c2c1-c1cccc(Br)c1 | NMDA receptor, mouse | single-channel current, outside-out patch | cortical neurons | concentration not given, added: Ca2+ 0.5 mM |  | amplitude 1 area | 79% |
| Cn1c(=O)oc2ccc(-c3ccc(CC(C#N)NC(=O)C4CNCCCO4)c(F)c3)cc21 (stereo not shown) | neutrophil elastase (human) | neutrophil-normalised activity | human, whole blood | 40 mg once daily, day 19 |  | reduction | 61.6% |
| CC[C@H](C)[C@H](NC(=O)[C@H](Cc1ccccc1)NC(=O)[C@@H](NC(=O)[C@@H](NC(=O)[C@H](CC(C)C)NC(=O)[C@H](CCCCN)NC(=O)[C@@H](N)CCCCN)[C@@H](C)CC)[C@@H](C)O)C(=O)N[C@@H](CC(C)C)C(=O)N[C@@H](CCCNC(=N)N)C(=O)N[C@@H](CCCNC(=N)N)C(=O)N[C@H](C(=O)N[C@@H](CCCNC(=N)N)C(=O)N[C@@H](CCC(=O)O)C(=O)N[C@@H](CCCCN)C(=O)N[C@@H](CCCCN)C(=O)N[C@@H](CCCCN)C(=O)N[C@@H](CCC(=O)O)C(=O)N[C@@H](CS)C(=O)N[C@@H](CC(C)C)C(=O)N[C@H](C(=O)O)C(C)C)[C@@H](C)O | voltage-gated sodium channel | resurgent sodium current, kinetic model fit | mouse CA3 neurons | 200 µM, membrane potential -30 mV |  | rate constant kIO | 3 s⁻¹ |
| O=C(c1ccc(F)cc1)N1CCCC(c2nc(-c3cccs3)no2)C1 (stereo not shown) | mGluR5 | calcium fluorescence, positive allosteric modulator | mGluR5-expressing cells | added: glutamate EC20 | reference: maximal glutamate response | Emax | 98 ± 4% |
| CCCNCC(=O)O | DNA | binding, UV-vis absorption titration |  | concentration not given |  | hypochromicity | 45.4% |
| CC[C@H](C)[C@H](NC(=O)[C@H](C)NC(=O)[C@@H](NC(=O)[C@@H](NC(=O)[C@H](CC(C)C)NC(=O)[C@H](CCCCN)NC(=O)[C@@H](N)CCCCN)[C@@H](C)CC)[C@@H](C)O)C(=O)N[C@@H](CC(C)C)C(=O)N[C@@H](CCCCN)C(=O)N[C@@H](CCCCN)C(=O)N[C@H](C(=O)N[C@@H](CCCNC(=N)N)C(=O)N[C@@H](CCC(=O)O)C(=O)N[C@@H](CCCCN)C(=O)N[C@@H](CCCCN)C(=O)N[C@@H](CCCCN)C(=O)N[C@@H](CCC(=O)O)C(=O)N[C@@H](CS)C(=O)N[C@@H](CC(C)C)C(=O)N[C@H](C(=O)O)C(C)C)[C@@H](C)O | voltage-gated sodium channel | resurgent sodium current, kinetic model fit | mouse CA3 neurons | 200 µM, membrane potential -30 mV |  | rate constant kOB | 42 s⁻¹ |
| N=C(N)SCc1ccccc1CSC(=N)N | TDO (human) | western blot | A-172 | concentration not given |  | protein level | no effect |
| CC[C@H](C)[C@H](NC(=O)[C@H](Cc1ccccc1)NC(=O)[C@@H](NC(=O)[C@@H](NC(=O)[C@H](CC(C)C)NC(=O)[C@H](CCCCN)NC(=O)[C@@H](N)CCCCN)[C@@H](C)CC)[C@@H](C)O)C(=O)N[C@@H](CC(C)C)C(=O)N[C@@H](CCCCN)C(=O)N[C@@H](CCCCN)C(=O)N[C@H](C(=O)N[C@@H](CCCNC(=N)N)C(=O)N[C@@H](CCC(=O)O)C(=O)N[C@@H](CCCCN)C(=O)N[C@@H](CCCCN)C(=O)N[C@@H](CCCCN)C(=O)N[C@@H](CCC(=O)O)C(=O)N[C@@H](CS)C(=O)N[C@@H](CC(C)C)C(=O)N[C@H](C(=O)O)C(C)C)[C@@H](C)O | voltage-gated sodium channel | resurgent sodium current, kinetic model fit | mouse CA3 neurons | 200 µM, membrane potential -10 mV |  | rate constant kOB | 370 s⁻¹ |
| CCCCCCCCCCCCCC(=O)N[C@@H](CO)C(=O)N[C@H](C(=O)N[C@@H](Cc1ccc(O)cc1)C(=O)N[C@@H](CCCNC(=N)N)C(=O)N[C@@H](CCCNC(=N)N)C(=O)NCC(=O)N[C@@H](C)C(=O)N[C@@H](CCCNC(=N)N)C(=O)N[C@@H](CCCNC(=N)N)C(=O)N[C@@H](Cc1c[nH]c2ccccc12)C(=O)N[C@@H](CCCNC(=N)N)C(=O)N[C@@H](CCCCN)C(=O)N[C@@H](CC(C)C)C(=O)O)[C@@H](C)CC | PKMζ | refers to: ~180 kDa band | 293T overexpressing PKMζ | 100 µM |  | substrate phosphorylation | no effect |
